Experimental data pooled from the literature.
Compare with care: the assays were run in different laboratories. Several values in a cell are separate wells, animals, samples, runs or records.

| Compound | assay | system | conditions | how to read | endpoint | value |
| --- | --- | --- | --- | --- | --- | --- |
| C=CCN1CCC23c4c5ccc(OC(=O)c6ccc(NC(=O)OC(C)(C)C)cc6)c4OC2C(=O)CCC3(O)C1C5 (stereo not shown) |  | rat plasma | 0.5 h, added: loperamide 100 µM |  | remaining compound | 80.4% and 62.2% and 67.9% |
| CSCC[C@H](NC(=O)[C@H](CCCNC(=N)N)NC(=O)[C@H](CCCNC(=N)N)NC(=O)[C@H](CCCCN)NC(=O)[C@H](C)NC(=O)[C@H](CCCNC(=N)N)NC(=O)CNC(=O)[C@@H](N)[C@@H](C)O)C(=O)N[C@@H](CCC(N)=O)C(=O)N[C@@H](Cc1ccc(O)cc1)C(=O)N[C@@H](CC(N)=O)C(=O)N[C@@H](CCCNC(=N)N)C(=O)N[C@@H](CCCNC(=N)N)C(N)=O | HPLC peak area | 50% human serum | 100 µM, 12 h, pH 7.4, 37 °C | reference: 0 h | remaining peptide | 6.45% and 8.76% and 9.96% |
| C#Cc1c(F)ccc2cc(O)cc(-c3ncc4c(N5CC6CCC(C5)N6C(=O)OC(C)OC(=O)CC56CC7CC(CC(C7)C5)C6)nc(OC[C@@]56CCCN5C[C@H](F)C6)nc4c3F)c12 (stereo partly shown) |  | simulated gastric fluid | 1 µM, 30 min, 37 °C |  | remaining prodrug | 112% |
| C=CCN1CCC23c4c5ccc(OC(=O)c6ccccc6)c4OC2C(=O)CCC3(O)C1C5 (stereo not shown) |  | human plasma | 0 h |  | remaining compound | 104% and 99.4% and 96.3% |
| C#Cc1c(F)ccc2cc(O)cc(-c3ncc4c(N5CC6CCC(C5)N6C(=O)OC(C)OC(=O)C(CC)CCCC)nc(OC[C@@]56CCCN5C[C@H](F)C6)nc4c3F)c12 (stereo partly shown) |  | simulated gastric fluid | 1 µM, 30 min, 37 °C |  | remaining prodrug | 93.4% |
| CCCCCCCCCCCC(=O)C(C)C(=O)N1CCC[C@H]1C(=O)NC(C)(C)C(=O)NC(C)(C)C(=O)NC(C)(C)C(=O)N[C@](C)(CC)C(=O)NCCC(=O)N[C@@H](C)C(=O)N[C@](C)(CC)C(=O)N[C@@H](C)C(=O)N[C@@H](CC(C)C)C(=O)N[C@](C)(CC)C(=O)NCCC(=O)N[C@@H](C)C(=O)N[C@](C)(CC)C(=O)NCCC(=O)N[C@@H](C)C(=O)NC(C)(C)C(=O)NC(C)(C)C(=O)NC(C)(C)C(=O)N[C@@H](C)C(=O)N[C@@H](CC(=O)O)C(=O)O (stereo partly shown) | LC-MS | buffer with human neutrophil elastase | 40 µM, 20 min, pH 7.5, 37 °C | reference: 0 h | remaining intact peptide | 76.2% and 75.9% and 72.6% |
| CC(C)[C@@H]1NC(=O)CNC(=O)[C@H](CC(N)=O)NC(=O)[C@H](CCCNC(=N)N)NC(=O)[C@H](Cc2ccc(O)cc2)NC(=O)[C@H](C(C)C)NC(=O)[C@@H](NC(=O)[C@@H](NC(=O)[C@H](CC(N)=O)NC(=O)[C@H](Cc2c[nH]c3ccccc23)NC(=O)[C@H](C)NC(=O)[C@H](Cc2ccccc2)NC(=O)CNC(=O)[C@H](CCCCN)NC(=O)[C@H](Cc2ccccc2)NC(=O)[C@H](Cc2ccccc2)NC(=O)[C@H](CCCCN)NC(=O)OCC2c3ccccc3-c3ccccc32)C(C)C)CSSC[C@@H](C(=O)N[C@@H](Cc2c[nH]cn2)C(=O)N[C@@H](CCCNC(=N)N)C(=O)N[C@@H](CCCNC(=N)N)C(=O)N[C@@H](C)C(=O)N[C@@H](CC(N)=O)C(N)=O)NC(=O)[C@H](C(C)C)NC(=O)[C@H](CCCNC(=N)N)NC1=O | HPLC | mouse mammary gland homogenate | 2560 µM, 4.00 h, 37 °C, 50 mg/mL tissue |  | remaining peptide | 81.1% and 74.9% and 79.7% |
| CC[C@H](C)[C@H](NC(=O)[C@@H](NC(=O)[C@H](CCCCN)NC(=O)[C@@H](NC(=O)CNC(=O)[C@@H](N)CCCNC(=N)N)[C@@H](C)O)C(C)C)C(=O)N[C@@H](CC(C)C)C(=O)N[C@@H](Cc1c[nH]cn1)C(=O)N[C@@H](CC(C)C)C(N)=O | LC-MS | pronase digest | 200 µM, 10 min, pH 7.5, 37 °C, added: pronase 2.5 µg/mL |  | remaining intact peptide | 24% |
| Cc1nnc(-c2ccc(CC(=O)NCCCC[C@H](NC(=O)c3ccc(OCc4ccc(B(O)O)cc4)c(-c4nc5ccccc5c(=O)[nH]4)c3)C(=O)NCC(=O)NCC(=O)NCC(=O)N[C@@H](Cc3ccccc3)C(=O)N[C@@H](Cc3ccccc3)C(=O)O)cc2)nn1 | UPLC-MS/MS | human serum | 100 µM, 1 h, 37 °C |  | remaining compound | 83.3% and 90.4% |
| C=CCN1CCC23c4c5ccc(OC(=O)c6ccc(N)cc6)c4OC2C(=O)CCC3(O)C1C5 (stereo not shown) |  | rat plasma | 0.5 h, added: loperamide 100 µM |  | remaining compound | 77.6% and 78% and 75% |

Excerpt of the above:
| Compound | assay | system | conditions | how to read | endpoint | value |
| --- | --- | --- | --- | --- | --- | --- |
| C#Cc1c(F)ccc2cc(O)cc(-c3ncc4c(N5CC6CCC(C5)N6C(=O)OC(C)OC(=O)C(CC)CCCC)nc(OC[C@@]56CCCN5C[C@H](F)C6)nc4c3F)c12 (stereo partly shown) |  | simulated gastric fluid | 1 µM, 30 min, 37 °C |  | remaining prodrug | 93.4% |
